Measured values collected from several papers.
Lines come from different studies, so protocols differ. Numbers after ± are the reported error.
Salicylate synthetase, Irp9: Salicylate synthetase, Irp9 (Yersinia enterocolitica, UniProt Q9X9I8)
NOX5: NADPH oxidase 5 (NOX5, Homo sapiens, UniProt Q96PH1)
NOX1: NADPH oxidase 1 (NOX1, Homo sapiens, UniProt Q9Y5S8)
Chrna3/Chrnb2/Chrna6 with beta3 subunit: Chrna3/Chrnb2/Chrna6, with beta3 subunit (Rattus norvegicus, UniProt P04757+P12390+P43143)
Neuronal acetylcholine receptor; alpha3/beta2: Neuronal acetylcholine receptor; alpha3/beta2 (Rattus norvegicus, UniProt P04757+P12390)
ache: Acetylcholinesterase (ache, Electrophorus electricus, UniProt O42275)

Sequences of proteins named here, by UniProt entry; tags and fusion partners are left off. Residues count along the entry.
UniProt Q96PH1, 1-719 isoform 4: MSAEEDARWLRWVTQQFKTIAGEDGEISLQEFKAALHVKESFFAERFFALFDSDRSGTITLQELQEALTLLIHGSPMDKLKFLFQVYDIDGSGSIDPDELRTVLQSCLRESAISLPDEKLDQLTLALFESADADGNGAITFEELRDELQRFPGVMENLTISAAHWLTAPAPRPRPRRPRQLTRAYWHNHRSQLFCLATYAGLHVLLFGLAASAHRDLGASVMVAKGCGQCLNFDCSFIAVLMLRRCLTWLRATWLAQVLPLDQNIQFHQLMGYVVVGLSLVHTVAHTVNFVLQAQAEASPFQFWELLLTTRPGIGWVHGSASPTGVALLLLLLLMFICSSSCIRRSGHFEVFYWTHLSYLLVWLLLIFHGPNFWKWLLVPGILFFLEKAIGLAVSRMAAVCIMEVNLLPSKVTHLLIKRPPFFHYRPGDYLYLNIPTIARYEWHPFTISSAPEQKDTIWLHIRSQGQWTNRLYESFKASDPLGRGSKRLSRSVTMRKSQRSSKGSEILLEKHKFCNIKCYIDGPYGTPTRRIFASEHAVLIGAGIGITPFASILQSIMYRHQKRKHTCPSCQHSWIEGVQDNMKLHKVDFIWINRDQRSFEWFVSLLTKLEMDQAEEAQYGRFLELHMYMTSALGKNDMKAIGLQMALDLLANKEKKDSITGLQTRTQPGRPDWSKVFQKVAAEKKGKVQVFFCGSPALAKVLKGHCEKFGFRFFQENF
UniProt Q9Y5S8, whole entry: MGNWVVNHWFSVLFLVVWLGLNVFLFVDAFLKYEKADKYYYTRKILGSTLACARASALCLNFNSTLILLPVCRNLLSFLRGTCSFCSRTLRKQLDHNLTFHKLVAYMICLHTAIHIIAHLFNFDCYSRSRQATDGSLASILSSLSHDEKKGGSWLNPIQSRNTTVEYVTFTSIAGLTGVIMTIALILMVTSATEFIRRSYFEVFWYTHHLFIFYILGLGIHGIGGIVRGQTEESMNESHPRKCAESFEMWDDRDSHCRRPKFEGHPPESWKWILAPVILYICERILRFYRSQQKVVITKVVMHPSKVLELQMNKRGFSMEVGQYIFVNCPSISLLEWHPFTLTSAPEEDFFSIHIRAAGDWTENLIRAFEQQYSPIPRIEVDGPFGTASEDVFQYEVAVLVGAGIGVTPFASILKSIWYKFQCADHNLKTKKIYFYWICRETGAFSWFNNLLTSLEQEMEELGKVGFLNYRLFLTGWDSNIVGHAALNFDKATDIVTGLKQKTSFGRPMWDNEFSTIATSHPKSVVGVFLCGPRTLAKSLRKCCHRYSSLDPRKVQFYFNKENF
UniProt P04757, whole entry, looked up: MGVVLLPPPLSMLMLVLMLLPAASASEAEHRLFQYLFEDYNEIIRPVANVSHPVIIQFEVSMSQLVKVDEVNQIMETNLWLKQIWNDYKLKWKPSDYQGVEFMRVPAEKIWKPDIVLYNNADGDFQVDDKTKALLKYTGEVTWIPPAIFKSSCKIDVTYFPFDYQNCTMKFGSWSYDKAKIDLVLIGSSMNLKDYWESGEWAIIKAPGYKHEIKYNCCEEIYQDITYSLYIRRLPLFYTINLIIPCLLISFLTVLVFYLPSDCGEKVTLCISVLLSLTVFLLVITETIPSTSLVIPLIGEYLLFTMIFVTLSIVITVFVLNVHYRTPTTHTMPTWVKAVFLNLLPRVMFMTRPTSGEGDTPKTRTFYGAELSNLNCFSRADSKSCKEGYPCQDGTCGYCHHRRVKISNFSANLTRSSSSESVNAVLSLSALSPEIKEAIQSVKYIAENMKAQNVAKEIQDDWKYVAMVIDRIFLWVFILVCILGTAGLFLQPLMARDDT
UniProt P04757, 26-499 limits assumed: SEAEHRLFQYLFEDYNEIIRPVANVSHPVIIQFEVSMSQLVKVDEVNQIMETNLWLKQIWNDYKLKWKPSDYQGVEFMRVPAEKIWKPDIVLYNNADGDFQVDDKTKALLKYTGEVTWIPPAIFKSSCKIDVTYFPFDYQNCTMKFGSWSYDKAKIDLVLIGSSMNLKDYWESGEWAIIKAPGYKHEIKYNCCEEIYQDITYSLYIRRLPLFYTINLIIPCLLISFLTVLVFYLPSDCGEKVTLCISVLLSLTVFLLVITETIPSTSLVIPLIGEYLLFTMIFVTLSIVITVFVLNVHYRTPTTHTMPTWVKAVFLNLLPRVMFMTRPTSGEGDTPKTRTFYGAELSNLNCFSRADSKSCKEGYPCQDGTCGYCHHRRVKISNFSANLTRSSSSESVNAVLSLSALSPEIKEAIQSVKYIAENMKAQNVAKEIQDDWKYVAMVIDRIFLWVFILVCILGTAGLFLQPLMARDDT
UniProt P12390, whole entry, looked up: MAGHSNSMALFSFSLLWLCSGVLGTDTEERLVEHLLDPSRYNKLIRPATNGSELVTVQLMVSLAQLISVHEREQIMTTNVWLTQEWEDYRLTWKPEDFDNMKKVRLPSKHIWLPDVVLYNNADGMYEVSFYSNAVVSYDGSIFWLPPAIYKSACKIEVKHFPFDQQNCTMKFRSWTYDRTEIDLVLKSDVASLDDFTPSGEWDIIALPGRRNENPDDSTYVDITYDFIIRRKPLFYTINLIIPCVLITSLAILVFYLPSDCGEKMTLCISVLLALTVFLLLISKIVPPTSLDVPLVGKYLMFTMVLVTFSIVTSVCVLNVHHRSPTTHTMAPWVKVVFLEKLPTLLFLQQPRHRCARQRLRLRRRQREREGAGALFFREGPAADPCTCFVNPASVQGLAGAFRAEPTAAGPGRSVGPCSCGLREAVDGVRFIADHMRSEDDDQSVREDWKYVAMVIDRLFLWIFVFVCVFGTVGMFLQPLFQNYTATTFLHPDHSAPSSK
UniProt P12390, 25-500 limits assumed: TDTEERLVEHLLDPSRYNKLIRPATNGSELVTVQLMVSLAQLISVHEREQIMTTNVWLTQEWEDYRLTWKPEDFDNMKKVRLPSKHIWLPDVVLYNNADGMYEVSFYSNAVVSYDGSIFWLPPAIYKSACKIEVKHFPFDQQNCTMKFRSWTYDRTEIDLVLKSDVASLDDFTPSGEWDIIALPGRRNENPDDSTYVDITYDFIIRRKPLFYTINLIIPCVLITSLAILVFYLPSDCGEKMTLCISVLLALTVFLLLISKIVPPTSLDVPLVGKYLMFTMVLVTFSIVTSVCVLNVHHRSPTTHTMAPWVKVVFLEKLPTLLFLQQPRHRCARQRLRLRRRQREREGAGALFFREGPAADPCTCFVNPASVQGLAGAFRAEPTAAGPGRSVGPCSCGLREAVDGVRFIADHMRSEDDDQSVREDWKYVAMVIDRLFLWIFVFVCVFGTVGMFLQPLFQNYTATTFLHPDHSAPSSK
UniProt P43143, whole entry M241L/F253L/V303I/V320I/I327V/A333T/K339T, looked up: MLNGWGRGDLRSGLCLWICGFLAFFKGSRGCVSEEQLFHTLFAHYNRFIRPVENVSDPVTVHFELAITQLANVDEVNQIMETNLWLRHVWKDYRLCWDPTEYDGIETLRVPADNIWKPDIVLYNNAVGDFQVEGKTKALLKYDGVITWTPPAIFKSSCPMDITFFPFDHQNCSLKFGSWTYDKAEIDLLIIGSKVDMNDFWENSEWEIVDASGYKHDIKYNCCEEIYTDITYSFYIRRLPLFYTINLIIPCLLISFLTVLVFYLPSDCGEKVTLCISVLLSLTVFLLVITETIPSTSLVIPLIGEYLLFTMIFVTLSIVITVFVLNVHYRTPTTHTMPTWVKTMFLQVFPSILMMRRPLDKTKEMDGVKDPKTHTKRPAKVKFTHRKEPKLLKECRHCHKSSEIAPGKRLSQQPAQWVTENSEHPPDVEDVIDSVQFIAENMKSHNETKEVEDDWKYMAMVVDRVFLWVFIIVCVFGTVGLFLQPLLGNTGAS
UniProt O42275, 24-633 limits assumed: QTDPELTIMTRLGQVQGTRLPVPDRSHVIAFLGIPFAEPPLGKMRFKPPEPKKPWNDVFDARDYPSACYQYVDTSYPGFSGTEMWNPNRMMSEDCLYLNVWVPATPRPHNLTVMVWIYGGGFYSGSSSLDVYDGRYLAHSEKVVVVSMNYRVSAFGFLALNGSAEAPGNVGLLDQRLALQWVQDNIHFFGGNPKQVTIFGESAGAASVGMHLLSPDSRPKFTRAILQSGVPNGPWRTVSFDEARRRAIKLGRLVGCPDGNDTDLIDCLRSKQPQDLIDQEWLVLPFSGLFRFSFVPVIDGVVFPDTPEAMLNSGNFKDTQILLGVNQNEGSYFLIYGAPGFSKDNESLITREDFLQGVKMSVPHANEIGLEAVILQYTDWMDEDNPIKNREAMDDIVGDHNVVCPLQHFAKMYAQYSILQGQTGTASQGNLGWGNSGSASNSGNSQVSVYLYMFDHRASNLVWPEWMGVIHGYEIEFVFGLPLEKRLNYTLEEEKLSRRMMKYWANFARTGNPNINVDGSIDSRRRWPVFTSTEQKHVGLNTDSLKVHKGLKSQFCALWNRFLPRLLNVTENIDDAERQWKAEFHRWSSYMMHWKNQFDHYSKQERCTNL
UniProt P36544, 23-502 limits assumed: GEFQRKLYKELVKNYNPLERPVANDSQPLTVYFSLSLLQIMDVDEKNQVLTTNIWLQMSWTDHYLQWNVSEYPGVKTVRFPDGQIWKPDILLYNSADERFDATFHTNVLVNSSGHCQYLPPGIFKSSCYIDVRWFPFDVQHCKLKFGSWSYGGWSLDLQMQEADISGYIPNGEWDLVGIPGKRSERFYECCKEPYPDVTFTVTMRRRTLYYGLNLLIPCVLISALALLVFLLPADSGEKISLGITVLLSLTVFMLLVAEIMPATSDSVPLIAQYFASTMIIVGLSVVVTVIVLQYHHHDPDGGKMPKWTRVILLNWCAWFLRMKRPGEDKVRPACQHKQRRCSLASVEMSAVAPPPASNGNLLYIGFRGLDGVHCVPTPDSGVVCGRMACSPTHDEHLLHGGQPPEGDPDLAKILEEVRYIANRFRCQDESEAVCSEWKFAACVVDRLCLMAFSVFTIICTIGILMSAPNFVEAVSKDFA
UniProt Q51507, whole entry: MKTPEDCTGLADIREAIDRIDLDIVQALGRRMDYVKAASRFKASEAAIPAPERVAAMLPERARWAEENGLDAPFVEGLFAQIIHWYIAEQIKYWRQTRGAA
UniProt P18507, whole entry, looked up: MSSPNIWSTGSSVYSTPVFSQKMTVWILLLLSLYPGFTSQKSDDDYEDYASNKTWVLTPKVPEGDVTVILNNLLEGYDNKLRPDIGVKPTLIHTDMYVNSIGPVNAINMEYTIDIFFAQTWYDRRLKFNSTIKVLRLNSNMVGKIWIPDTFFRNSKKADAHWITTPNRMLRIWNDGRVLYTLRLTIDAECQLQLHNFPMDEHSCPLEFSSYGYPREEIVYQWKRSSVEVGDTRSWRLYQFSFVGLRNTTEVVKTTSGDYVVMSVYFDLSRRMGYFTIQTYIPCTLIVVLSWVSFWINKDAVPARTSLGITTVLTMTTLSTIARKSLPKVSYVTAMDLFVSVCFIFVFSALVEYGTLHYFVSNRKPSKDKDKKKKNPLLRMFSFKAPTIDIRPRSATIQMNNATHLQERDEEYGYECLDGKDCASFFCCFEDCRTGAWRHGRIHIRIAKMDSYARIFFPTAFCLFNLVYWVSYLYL
UniProt O75762, whole entry: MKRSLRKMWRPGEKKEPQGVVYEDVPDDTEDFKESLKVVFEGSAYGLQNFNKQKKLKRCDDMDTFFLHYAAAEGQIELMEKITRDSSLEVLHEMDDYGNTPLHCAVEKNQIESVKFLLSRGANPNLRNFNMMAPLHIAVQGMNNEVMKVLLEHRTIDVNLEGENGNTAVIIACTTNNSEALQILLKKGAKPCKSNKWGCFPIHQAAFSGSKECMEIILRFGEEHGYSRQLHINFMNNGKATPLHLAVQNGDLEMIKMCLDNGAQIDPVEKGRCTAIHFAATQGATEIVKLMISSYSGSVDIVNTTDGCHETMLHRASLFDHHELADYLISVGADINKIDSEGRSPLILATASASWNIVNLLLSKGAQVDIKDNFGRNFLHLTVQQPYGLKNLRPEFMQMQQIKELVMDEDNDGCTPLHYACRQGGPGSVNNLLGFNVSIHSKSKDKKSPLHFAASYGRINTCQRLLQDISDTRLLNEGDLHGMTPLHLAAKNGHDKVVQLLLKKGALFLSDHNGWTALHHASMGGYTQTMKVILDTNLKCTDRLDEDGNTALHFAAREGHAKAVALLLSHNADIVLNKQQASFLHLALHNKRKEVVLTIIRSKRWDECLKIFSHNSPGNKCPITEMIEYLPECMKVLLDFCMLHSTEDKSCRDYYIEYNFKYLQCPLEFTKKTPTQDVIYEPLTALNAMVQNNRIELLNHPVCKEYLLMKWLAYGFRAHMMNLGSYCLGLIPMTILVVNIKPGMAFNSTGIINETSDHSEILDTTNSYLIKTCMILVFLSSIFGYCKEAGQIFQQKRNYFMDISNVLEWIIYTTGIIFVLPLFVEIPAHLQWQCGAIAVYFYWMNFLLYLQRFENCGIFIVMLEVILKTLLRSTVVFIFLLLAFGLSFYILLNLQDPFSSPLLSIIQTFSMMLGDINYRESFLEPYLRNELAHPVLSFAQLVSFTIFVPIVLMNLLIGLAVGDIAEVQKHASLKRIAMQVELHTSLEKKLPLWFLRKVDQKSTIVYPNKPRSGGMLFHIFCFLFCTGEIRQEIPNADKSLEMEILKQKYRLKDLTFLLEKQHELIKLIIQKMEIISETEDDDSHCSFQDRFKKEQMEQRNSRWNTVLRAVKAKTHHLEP

For `COc1ccc2nc(Sc3ncnc4c3nnn4Cc3ccccc3)oc2c1`, the IC50 was > 100000 nM (NADPH oxidase 2 (CYBB, Homo sapiens, UniProt P04839); enzyme activity, inhibitor, MCLA chemiluminescence; cell-free membranes).
`O=C1S/C(=C/c2cc([N+](=O)[O-])cc([N+](=O)[O-])c2O)C(=O)N1c1ccccc1` gave an IC50 of 42000 ± 3000 nM (Salicylate synthetase, Irp9; salicylate production, inhibitor; pH 7.5, 25 °C, together with: chorismate 2 µM).
With `Clc1ccc2nc(Sc3ncnc4c3nnn4Cc3ccccc3)oc2c1` the IC50 was 700 ± 20 nM (NOX5; enzyme activity, inhibitor, Amplex Red; cell-free membranes).
For `COc1cccc2[nH]cc(CCN)c12`, the IC50 was 4110 ± 261 nM (Sodium-dependent serotonin transporter (Slc6a4, Rattus norvegicus, UniProt P31652); serotonin uptake, inhibitor; rat brain synaptosomes).
`Cc1ccc2nc(Sc3ncnc4c3nnn4Cc3ccccc3)oc2c1` has an IC50 of > 100000 nM (NOX1; enzyme activity, inhibitor, Amplex Red; cell-free membranes).
`CN(CC1CCN(Cc2ccccc2)CC1)C(=O)c1cn(Cc2ccccc2Cl)nn1` has an IC50 of 3700 nM (Neuronal acetylcholine receptor subunit alpha-7 (CHRNA7, Homo sapiens, UniProt P36544); ion current, antagonist; Xenopus oocytes; together with: acetylcholine 60 µM).
The IC50 of `O=[N+]([O-])c1cc(S(=O)(=O)c2cc([N+](=O)[O-])c(O)c([N+](=O)[O-])c2)cc([N+](=O)[O-])c1O` is reported as 100 ± 100 nM (pchB (Pseudomonas aeruginosa, UniProt Q51507); salicylate production, inhibitor; pH 8, 25 °C, together with: isochorismate 2 µM).
For `c1ccc(Cn2nnc3c(Sc4nc5ccccc5[nH]4)ncnc32)cc1`, the IC50 was 1700 ± 300 nM (NOX5; enzyme activity, inhibitor, Amplex Red; cell-free membranes).
`CC(C)C[C@@H]1NC(=O)[C@H](CCC(=O)O)NC(=O)[C@@H]2CCCN2C(=O)[C@H](Cc2c[nH]cn2)NC(=O)[C@H](CC(N)=O)NC(=O)[C@H](C(C)C)NC(=O)[C@H]([C@@H](C)O)NC(=O)[C@@H]2CSSC[C@H](NC(=O)CN)C(=O)N[C@@H](CSSC[C@@H](C(N)=O)NC1=O)C(=O)N[C@@H](CO)C(=O)N[C@@H](Cc1c[nH]cn1)C(=O)N1CCC[C@H]1C(=O)N[C@@H](C)C(=O)N2` has an IC50 of 5.12 nM (Chrna3/Chrnb2/Chrna6 with beta3 subunit; ion current, antagonist, two-electrode voltage clamp; Xenopus laevis oocytes; together with: 100 µM acetylcholine).
With `CCC(C)C1NC(=O)/C(=C(/C)O)C1=O` (stereo not drawn) the IC50 was 7800 nM (Plasma membrane ATPase 1 (PMA1, Saccharomyces cerevisiae, UniProt P05030); ATP hydrolysis, inhibitor; plasma membrane fraction; expressed in Saccharomyces cerevisiae).
For `CC[C@H](C)[C@@H]1NC(=O)[C@H](CCC(=O)O)NC(=O)[C@@H]2CCCN2C(=O)[C@H](Cc2c[nH]cn2)NC(=O)[C@H](CC(N)=O)NC(=O)[C@H](C(C)C)NC(=O)[C@H](CO)NC(=O)[C@@H]2CSSC[C@H](NC(=O)CN)C(=O)N[C@@H](CSSC[C@@H](C(N)=O)NC1=O)C(=O)N[C@@H](CO)C(=O)N[C@@H](Cc1c[nH]cn1)C(=O)N1CCC[C@H]1C(=O)N[C@@H](C)C(=O)N2`, the IC50 was 12.8 nM (Chrna3/Chrnb2/Chrna6 with beta3 subunit; ion current, antagonist, two-electrode voltage clamp; Xenopus laevis oocytes; together with: 100 µM acetylcholine).
`Brc1ccc2nc(Sc3ncnc4c3nnn4Cc3ccccc3)oc2c1` has an IC50 of 1600 ± 100 nM (NOX5; enzyme activity, inhibitor, Amplex Red; cell-free membranes).
For `CC[C@H](C)[C@H](NC(=O)[C@@H](NC(=O)[C@H](CC(=O)O)NC(=O)[C@H](CC(C)C)NC(=O)[C@H](CC(C)C)NC(=O)[C@H](CC(C)C)NC(=O)[C@H](CCCNC(=N)N)NC(=O)[C@H](CC(N)=O)NC(=O)[C@H](CC(N)=O)NC(=O)[C@H](C)NC(=O)[C@H](C)NC(=O)[C@H](CCC(N)=O)NC(=O)[C@H](CCC(N)=O)NC(=O)[C@H](CCCCN)NC(=O)[C@H](CCC(=O)O)NC(=O)[C@H](CCCCN)NC(=O)[C@H](CCC(=O)O)NC(=O)[C@H](CCC(N)=O)NC(=O)[C@H](CCCCN)NC(=O)[C@H](CCC(=O)O)NC(=O)[C@@H](NC(=O)[C@H](CCC(=O)O)NC(=O)[C@@H](NC(=O)[C@H](CCSC)NC(=O)[C@H](CCCCN)NC(=O)[C@H](CCCNC(=N)N)NC(=O)[C@H](CC(C)C)NC(=O)[C@H](CC(C)C)NC(=O)[C@H](Cc1c[nH]cn1)NC(=O)[C@H](N)Cc1ccccc1)[C@@H](C)CC)[C@@H](C)CC)[C@@H](C)O)C(N)=O`, the IC50 was 27 ± 1 nM (Corticotropin-releasing factor receptor 2/Corticotropin-releasing factor-binding protein, part alpha isoform (Homo sapiens, UniProt P24387+Q13324); intracellular Ca2+ release, antagonist; together with: CRF 3 µM).
`CNC(=O)Oc1ccc2c(c1)[C@]1(C)CCN(C)[C@@H]1N2C` gave an IC50 of 8.3 nM (Acetylcholinesterase (Ace, Anopheles gambiae, UniProt Q869C3); enzyme activity, inhibitor, Ellman; 10 min, together with: acetylthiocholine).
The IC50 of `CC(C)C[C@@H]1NC(=O)[C@H](CCC(=O)O)NC(=O)[C@@H]2CCCN2C(=O)[C@H](Cc2c[nH]cn2)NC(=O)[C@H](CCC(=O)O)NC(=O)[C@H](CC(C)C)NC(=O)[C@H](Cc2c[nH]cn2)NC(=O)[C@@H]2CSSC[C@H](NC(=O)CN)C(=O)N[C@@H](CSSC[C@@H](C(N)=O)NC1=O)C(=O)N[C@@H](CO)C(=O)N[C@@H](Cc1c[nH]cn1)C(=O)N1CCC[C@H]1C(=O)N[C@@H](C)C(=O)N2` is reported as 16.2 nM (Chrna3/Chrnb2/Chrna6 with beta3 subunit; ion current, antagonist, two-electrode voltage clamp; Xenopus laevis oocytes; together with: 100 µM acetylcholine).
`FC(F)(F)c1ccc2nc(Sc3ncnc4c3nnn4Cc3ccccc3)oc2c1` gave an IC50 of 21000 ± 1000 nM (NOX1; enzyme activity, inhibitor, Amplex Red; cell-free membranes).
The IC50 of `CC(C)C[C@@H]1NC(=O)[C@H](CCC(=O)O)NC(=O)[C@@H]2CCCN2C(=O)[C@H](Cc2c[nH]cn2)NC(=O)[C@H](CC(=O)O)NC(=O)[C@H](CC(C)C)NC(=O)[C@H](Cc2c[nH]cn2)NC(=O)[C@@H]2CSSC[C@H](NC(=O)CN)C(=O)N[C@@H](CSSC[C@@H](C(N)=O)NC1=O)C(=O)N[C@@H](CO)C(=O)N[C@@H](Cc1c[nH]cn1)C(=O)N1CCC[C@H]1C(=O)N[C@@H](C)C(=O)N2` is reported as 1.67 nM (Neuronal acetylcholine receptor; alpha3/beta2; ion current, antagonist, two-electrode voltage clamp; Xenopus laevis oocytes; together with: 100 µM acetylcholine).
`O=C(O)c1ccccc1[As](=O)(O)O` gave an IC50 of 9500 nM (Sphingomyelin phosphodiesterase (SMPD1, Homo sapiens, UniProt P17405); enzyme activity, inhibitor; pH 5.0, together with: sphingomyelin substrate).
The IC50 of `CC(C)C[C@@H]1NC(=O)[C@H](CCC(=O)O)NC(=O)[C@@H]2CCCN2C(=O)[C@H](Cc2c[nH]cn2)NC(=O)[C@H](CCCCC(=O)O)NC(=O)[C@H](CC(C)C)NC(=O)[C@H](Cc2c[nH]cn2)NC(=O)[C@@H]2CSSC[C@H](NC(=O)CN)C(=O)N[C@@H](CSSC[C@@H](C(N)=O)NC1=O)C(=O)N[C@@H](CO)C(=O)N[C@@H](Cc1c[nH]cn1)C(=O)N1CCC[C@H]1C(=O)N[C@@H](C)C(=O)N2` is reported as 0.38 nM (Neuronal acetylcholine receptor; alpha3/beta2; ion current, antagonist, two-electrode voltage clamp; Xenopus laevis oocytes; together with: 100 µM acetylcholine).
`Cc1cccc2nc(Sc3ncnc4c3nnn4Cc3ccccc3)oc12` gave an IC50 of 2300 ± 100 nM (NOX5; enzyme activity, inhibitor, Amplex Red; cell-free membranes).
The IC50 of `CC(C)C[C@@H]1NC(=O)[C@H](CCC(=O)O)NC(=O)[C@@H]2CCCN2C(=O)[C@H](Cc2c[nH]cn2)NC(=O)[C@H](CC(N)=O)NC(=O)[C@H](CC(C)C)NC(=O)[C@H](Cc2c[nH]cn2)NC(=O)[C@@H]2CSSC[C@H](NC(=O)CN)C(=O)N[C@@H](CSSC[C@@H](C(N)=O)NC1=O)C(=O)N[C@@H](CO)C(=O)N[C@@H](Cc1c[nH]cn1)C(=O)N1CCC[C@H]1C(=O)N[C@@H](C)C(=O)N2` is reported as 1.04 nM (Chrna3/Chrnb2/Chrna6 with beta3 subunit; ion current, antagonist, two-electrode voltage clamp; Xenopus laevis oocytes; together with: 100 µM acetylcholine).
With `C=C(C)[C@@H]1[C@H]2OC(=O)[C@@H]1[C@]1(O)C[C@H]3O[C@]34C(=O)O[C@H]2[C@]14C` the IC50 was 5800 nM (GABA-A receptor; alpha-6/beta-3/gamma-2 (Homo sapiens, UniProt P18507+P28472+Q16445); chloride current, inhibitor, whole-cell voltage clamp; L929; 3 min preincubation, together with: GABA at EC90).
`C[C@H]1[C@H](F)C[C@@H](C(=O)NCc2cc(-c3cnc(C(F)(F)F)nc3)ncc2C(F)(F)F)N1S(=O)(=O)c1ccc(F)cc1` gave an IC50 of 95 nM (Transient receptor potential cation channel subfamily A member 1 (TRPA1, Homo sapiens, UniProt O75762); calcium influx, antagonist, FlexStation calcium; HEK-293T transfected; together with: CS gas at EC50).
`c1ccc2c(NCCCNc3c4c(nc5ccccc35)CCCC4)c3c(nc2c1)CCCC3` gave an IC50 of 116000 nM (Amine oxidase [flavin-containing] B (MAOB, Homo sapiens, UniProt P27338); inhibitor).
For `C[Si](C)(C)CCOC(=O)Oc1ccc(COC(=O)Cc2ccccc2Nc2c(Cl)cccc2Cl)cc1`, the IC50 was 1360 ± 130 nM (ache; enzyme activity, inhibitor, Ellman).
For `O=c1oc2cc(Br)c(O)c(Br)c2s1`, the IC50 was 160000 ± 10000 nM (Salicylate synthetase, Irp9; pyruvate production, inhibitor; 25 °C, together with: chorismate 10 µM).
`C[C@@H]1NC(=O)[C@H](CCCNC(=N)N)NC(=O)[C@H](CCCNC(=N)N)NC(=O)[C@H](Cc2c[nH]cn2)NC(=O)[C@H](CO)NC(=O)[C@@H]2CSSC[C@H](NC(=O)CN)C(=O)N[C@@H](CSSC[C@@H](C(N)=O)NC(=O)[C@H](CO)NC(=O)[C@H](CCCNC(=N)N)NC1=O)C(=O)N[C@@H](CO)C(=O)N[C@@H](Cc1c[nH]cn1)C(=O)N1CCC[C@H]1C(=O)N[C@@H](C)C(=O)N2` gave an IC50 of 1290 nM (Neuronal acetylcholine receptor; alpha9/alpha10 (Homo sapiens, UniProt Q9GZZ6+Q9UGM1); ion current, antagonist, two-electrode voltage clamp; Xenopus oocytes; holding -70 mV, together with: 100 µM acetylcholine).
The IC50 of `Cc1cccc2oc(Sc3ncnc4c3nnn4Cc3ccccc3)nc12` is reported as > 100000 nM (NOX1; enzyme activity, inhibitor, Amplex Red; cell-free membranes).
`COc1ccc2c(c1)c(CC(=O)OCc1ccc(OC(=O)OCCC(C)(C)C)cc1)c(C)n2C(=O)c1ccc(Cl)cc1` gave an IC50 of 2290 ± 940 nM (ache; enzyme activity, inhibitor, Ellman).
`CC1(C)N=C(c2cnc3ccccc3c2)c2ccccc2C1(F)F` has an IC50 of 2.8 nM (Dihydroorotate dehydrogenase (quinone) (Pyricularia oryzae, UniProt G4NFI3, M402V); enzyme activity; 20 to 30 min, 30 °C).

Excerpt of the above:
The IC50 of `Cc1cccc2oc(Sc3ncnc4c3nnn4Cc3ccccc3)nc12` is reported as > 100000 nM (NOX1; enzyme activity, inhibitor, Amplex Red; cell-free membranes).
For `CC[C@H](C)[C@@H]1NC(=O)[C@H](CCC(=O)O)NC(=O)[C@@H]2CCCN2C(=O)[C@H](Cc2c[nH]cn2)NC(=O)[C@H](CC(N)=O)NC(=O)[C@H](C(C)C)NC(=O)[C@H](CO)NC(=O)[C@@H]2CSSC[C@H](NC(=O)CN)C(=O)N[C@@H](CSSC[C@@H](C(N)=O)NC1=O)C(=O)N[C@@H](CO)C(=O)N[C@@H](Cc1c[nH]cn1)C(=O)N1CCC[C@H]1C(=O)N[C@@H](C)C(=O)N2`, the IC50 was 12.8 nM (Chrna3/Chrnb2/Chrna6 with beta3 subunit; ion current, antagonist, two-electrode voltage clamp; Xenopus laevis oocytes; together with: 100 µM acetylcholine).
For `COc1cccc2[nH]cc(CCN)c12`, the IC50 was 4110 ± 261 nM (Sodium-dependent serotonin transporter (Slc6a4, Rattus norvegicus, UniProt P31652); serotonin uptake, inhibitor; rat brain synaptosomes).
With `Clc1ccc2nc(Sc3ncnc4c3nnn4Cc3ccccc3)oc2c1` the IC50 was 700 ± 20 nM (NOX5; enzyme activity, inhibitor, Amplex Red; cell-free membranes).
